Results pooled from the literature.
Compare with care: the assays were run in different laboratories.

`CCCCCOc1ccc(-c2cc(-c3ccc(C(=O)N[C@H]4C[C@@H](O)[C@@H](O)NC(=O)[C@@H]5[C@@H](O)[C@@H](C)CN5C(=O)[C@H]([C@H](O)CC(N)=O)NC(=O)[C@H]([C@H](O)[C@@H](O)c5ccc(O)c(OS(=O)(=O)O)c5)NC(=O)[C@@H]5C[C@@H](O)CN5C(=O)[C@H]([C@@H](C)O)NC4=O)cc3)no2)cc1` has a Tmax of 1.3 h (human children aged 12-16 years, plasma; intravenous, 3 mg/kg once daily, day 7, geometric mean).
`Cc1ncc2n1-c1ccc(Cl)cc1C(c1ccccc1F)=NC2` has a Tmax of 0.76 h (human CYP3A5*3/*3 non-expressers, serum; oral, 4 mg, median, no co-treatment).
The Tmax of `O=c1[nH]c(Cc2ccccn2)nc2c1cnn2C1CCOCC1` is reported as 0.75 h (healthy male human, plasma; oral, 10 mg, median).
For `CN(C)CCc1c[nH]c2ccccc12`, the Tmax was roughly 0.167 h (healthy human, plasma; intravenous infusion, 9 to 21.5 mg, median across cohorts).
With `Cc1ncc2n1-c1ccc(Cl)cc1C(c1ccccc1F)=NC2` the Tmax was no more than 0.5 h (healthy human volunteers, plasma; oral, 5 mg single dose, median, added: water).
`COc1ccc(C[C@@H]2NC(=O)[C@H]([C@@H](C)O)NC(=O)[C@@H]3[C@@H]4CCN3C(=O)[C@@H]3Cc5cn(c6ccc(F)cc56)CCCCCCN(Cc5ccc(cc5)CCNC(=O)[C@]5(C)CCCN5C2=O)C(=O)CCC(=O)N[C@@H](C)C(=O)N[C@H](CNC(=O)CCCCC[N+](C)(C)C)C(=O)N[C@@H](Cc2cccc(c2)CNC(=O)CO4)C(=O)N3)cc1` has a Tmax of 1.5 h (fasted healthy humans, plasma; oral, 35 mg single dose, with 1800 mg Labrasol, median).
The Tmax of `CC(=C/C=C/C(C)=C/C(=O)O)/C=C1\CCCc2ccccc21` is reported as roughly 3 h (healthy human volunteers, plasma; oral, 5 to 20 mg single dose).
`O[C@H]1CCCN[C@@H]1CCCn1cnc2c(Cl)c(Cl)ccc21` has a Tmax of 3 h (healthy human volunteers, plasma; oral, 200 mg, day 1, median).
`CC[C@@]1(O)C(=O)OCc2c1cc1n(c2=O)Cc2cc3c(CN(C)C)c(O)ccc3nc2-1` has a Tmax of 1.28 h (human patients, plasma; oral, 8 mg weekly, median, added: pazopanib 800 mg daily).

Repeated from above:
The Tmax of `CC(=C/C=C/C(C)=C/C(=O)O)/C=C1\CCCc2ccccc21` is reported as roughly 3 h (healthy human volunteers, plasma; oral, 5 to 20 mg single dose).
